{"data": "Literature values that unrelated publications cite", "note": "Each numbered part shows a few of the values that one paper quotes."}
{"data": "Set 1", "method": "isocratic RP-HPLC, C18 column", "form": "peptide", "sample": "water/acetonitrile, 0.1% TFA", "temperature": "25 °C"}
{"Sequence": "LLLGGDFR", "retention coefficient S": 16.8}
{"Sequence": "LAGGGSASSSADAAAFR", "retention coefficient S": 22.4}
{"Sequence": "FPTIPLSR", "retention coefficient S": 19.8}
{"data": "Set 2", "organism": "Acinetobacter baumannii", "form": "peptide"}
{"Sequence": "ILRKPWRIWRR", "MIC [µg/mL]": "> 512"}
{"Sequence": "GVLDNLKSAAKDLAGHLATKVIKKI", "MIC [µg/mL]": 16}
{"Sequence": "ILRWPWRIWRR", "MIC [µg/mL]": 256}
{"data": "Further values, each from its own experiment", "B1": "CCL1; sequence looked up; chain KSMQVPFSRCCFSFAEQEIPLRAILCYRNTSSICSNEGLIFKLKRGKEACALDTVGWVQRHRKMLRHCPSKRK"}
{"Molecule": "B1 (CCL1)", "tested on": "CCR8 K195A mutant", "assay": "IP accumulation, agonist", "endpoint": "EC50", "result": "7.5 nM"}
{"Molecule": "pegcetacoplan", "system": "human", "setting": "90 mg single dose, arithmetic mean", "endpoint": "AUC(0-inf)", "result": "7670 µg·h/mL"}
{"note": "A few entries again (further values, each from its own experiment):"}
{"Molecule": "B1 (CCL1)", "tested on": "CCR8 K195A mutant", "assay": "IP accumulation, agonist", "endpoint": "EC50", "result": "7.5 nM"}
